# Assay results from different studies.
# Protocols differ between the studies behind these lines. ± marks the error that the study gave.
SMILES,assay,system,conditions,quantity,result
C[C@H](NC(=O)COC(=O)[C@H](C)NC(=O)CO)C(=O)O,,water,"pH 8, 25 °C",depolymerization half-life,0.18 h
Cc1c(C(=O)Nc2ccn(C)n2)ncn1Cc1cccc(C(F)(F)F)c1,,human WT αS transgenic mouse,"oral, dose not given",body weight,28 ± 1 g
Cn1c(=O)oc2ccc(-c3ccc(CC(C#N)NC(=O)C4CNCCCO4)c(F)c3)cc21 (stereo not drawn),,human,"oral, 20 mg once daily, TEAE, multiple ascending dose",chest pain incidence,0%
C#CCOc1ccc(/C=C2\SC(=O)N(CC(=O)NCc3ccccc3)C2=O)cc1,inverse Kirkwood-Buff integrals,binary solvent mixture,"concentration not given, 298.15 K, mole fraction x1 0.20",correlation volume,2440 cm³/mol
CC(C)(O)c1ncc([S@](N)(=O)=NC(=O)Nc2c3c(cc4c2CCC4)CCC3)s1,,healthy humans,"oral, dose not given, study all active",number of TEAEs,64
CC(=O)N[C@H](CC(=O)O)C(=O)N[C@H](Cc1c[nH]c2ccccc12)C(=O)N[C@H](Cc1ccccc1)C(=O)N[C@H](CCCCN)C(=O)N[C@H](C)C(=O)N[C@H](Cc1ccccc1)C(=O)N[C@H](Cc1ccc(O)cc1)C(=O)N[C@H](CC(=O)O)C(=O)N[C@H](CCCCN)C(=O)N[C@@H](C(=O)N[C@H](C)C(=O)N[C@H](CCC(=O)O)C(=O)N[C@H](CCCCN)C(=O)N[C@H](Cc1ccccc1)C(=O)N[C@H](CCCCN)C(=O)N[C@H](CCC(=O)O)C(=O)N[C@H](C)C(=O)N[C@H](Cc1ccccc1)C(N)=O)C(C)C,,"statin-treated high-risk CHD men, plasma","oral, 300 mg daily, day 1, 0 to 2 h, mean, undetectable set to 0",Cmax,4.43 ng/mL
Nc1ncnc(NCC2CCN(C(=O)C(O)CO)CC2)c1-c1ccc(Oc2ccccc2)cc1 (stereo not drawn),,"male humans, plasma","oral, 75 mg evobrutinib, metabolite",plasma half-life,2.4 h
CCCC[C@@H]1NC(=O)[C@@H](NC(=O)[C@H](CCC(=O)O)NC(=O)CNC(=O)CN2CCN(CC(=O)O)CCN(CC(=O)O)CCN(CC(=O)O)CC2)CCCCNC(=O)C[C@@H](C(N)=O)NC(=O)[C@H](C(C)C)NC(=O)[C@@H]2CCCN2C(=O)[C@H](CCCNC(=N)N)NC(=O)CNC(=O)[C@H](Cc2c[nH]c3ccccc23)NC(=O)[C@H](CCCNC(=N)N)NC(=O)[C@@H](Cc2ccccc2)NC(=O)[C@H](Cc2c[nH]cn2)NC(=O)[C@H](CCC(=O)O)NC1=O [gallium-67 labelled],,"C57 mice, B16/F10 lung metastases","intravenous, 0.037 MBq, 4 h",intestine uptake,1.13 ± 0.11 %ID
Cc1ccc(OCC(=O)O)cc1,,"Sprague-Dawley rat, male, plasma","oral, 30 mg/kg/day of parent drug, day 1, 90-day repeated dosing",t1/2,2.26 h
COC(=O)C(c1ccccc1Cl)N1CCC(SCC(=O)c2cccc(OC)c2)C(=CC(=O)O)C1 (mixture of isomers),HPLC-MS/MS,feline EDTA plasma,"100 ng/mL, 72 h, -20 °C, storage stability",deviation from nominal,2%
Cc1ccc(-c2ccc(-c3cc4sccc4o3)cn2)nc1,TCSPC,benzene,,radiative decay rate constant,0.69 ns⁻¹
COc1ccc(NC(=O)[C@H](CCCCN)NC(=O)c2cc(NC(=O)[C@H](CCCCN)NC(=O)c3cc(NC(=O)[C@H](CCCCN)NC(=O)c4cc(NC(=O)[C@@H](N)CCCCN)ccc4OC)ccc3OC)ccc2OC)cc1C(N)=O,UV-vis λmax shift,TBS,"pH 7.4, monomer-hexamer, K in M^-5",log association constant,19.3
CC(C)(Sc1cc[n+]([O-])cc1-c1ccc(C#N)c2ccccc12)C(=O)OC1OC(C(=O)O)C(O)C(O)C1O (stereo not drawn),,plasma,"oral, 15 mg, mild renal impairment, fasted",terminal half-life,10.7 h
C=C(c1ncc(C(=O)O)cn1)c1cc2c(cc1C)C(C)(C)CCC2(C)C,,"Sprague-Dawley rat, male","oral, 100 mg/kg, 6 h, sesame oil vehicle",blood cholesterol,89 ± 16 mg/dL
CC(=O)N[C@@H](CO)C(=O)N[C@@H](CC(=O)O)C(=O)N[C@@H](CCCCN)C(=O)N1CCC[C@H]1C(=O)O,H&E histology,rat embolic MCAO model,"dose not given, start 4 h after MCAO, read day 7",haemorrhage incidence,14%
